Results collected from several papers.
Lines come from different studies, so protocols differ. ± marks the error that the study gave.

The EC50 of `Cc1ccc(C(=O)Nc2ccc(S(=O)(=O)O)c3cc(S(=O)(=O)O)cc(S(=O)(=O)O)c23)cc1NC(=O)c1cccc(NC(=O)Nc2cccc(C(=O)Nc3cc(C(=O)Nc4ccc(S(=O)(=O)O)c5cc(S(=O)(=O)O)cc(S(=O)(=O)O)c45)ccc3C)c2)c1` is reported as less than 10000 nM (Dengue virus 2; viral replication; BHK-21; 24 h).
The EC50 of `Cc1cc(C)cc(S(=O)(=O)c2c(C(=O)NCCNS(=O)(=O)c3ccccc3)[nH]c3ccc(Cl)cc23)c1` is reported as 14 ± 1.1 nM (HIV-1; viral replication; MT-4, IIIB).
`CCCOc1ccc(-c2nc(N)[nH]c2C(F)(F)F)cc1` has an EC50 of 120000 ± 3000 nM (Mycolicibacterium smegmatis; biofilm).
The EC50 of `Cc1ccnc2c1NC(=O)c1cccnc1N2C1CC1` is reported as 130 ± 41 nM (HIV-1; viral replication; MT-4, IIIB).
For `Cc1noc(/C=C/c2ccccn2)c1[N+](=O)[O-]`, the EC50 was roughly 6000 nM (Schistosoma mansoni; parasite motility; 48 h, adult).
For `Nc1ncn(CC(O)C(F)(F)F)c(=O)n1` (stereo not shown), the EC50 was 40000 to 270000 nM (human mastadenovirus C; viral replication).
For `C[C@H]1CN(c2n[nH]c3nc(N[C@H]4CC[C@H](NS(=O)(=O)CCC(F)(F)F)CC4)ncc23)CCO1`, the EC50 was 130 nM (Leishmania donovani; human PBMC, DD8).
For `CCCCCOc1ccc(-c2nc(N)[nH]c2C(F)(F)F)cc1`, the EC50 was 74200 ± 2500 nM (Mycolicibacterium smegmatis; biofilm).
`COc1ccc(S(=O)(=O)NCCCCCNC(=O)c2[nH]c3ccc(Cl)cc3c2S(=O)(=O)c2cc(C)cc(C)c2)cc1` has an EC50 of 23 ± 8.1 nM (HIV-1; viral replication; MT-4, IIIB).
The EC50 of `Nc1nc(=O)c2c([nH]1)NC[C@@H]1CN(c3ccc(C(=O)N[C@@H](CCC(=O)O)C(=O)O)cc3)C(=O)N21` is reported as roughly 5000 nM (Leishmania; macrophages; intracellular amastigotes).
`Cc1cc(C)cc(S(=O)(=O)c2c(C(=O)NCCNS(=O)(=O)c3ccc(-c4ccccc4)cc3)[nH]c3ccc(Cl)cc23)c1` gave an EC50 of 210 ± 48 nM (HIV-1; viral replication; MT-4, IIIB).
For `N=c1c2ncn3c2ncn1[C@@H]1O[C@H](COP(=O)(O)OP(=O)(O)OC[C@H]2O[C@@H]3[C@H](O)[C@@H]2O)[C@@H](O)[C@H]1O`, the EC50 was 410 nM (Lytechinus pictus; Ca2+ release, agonist, Fluo-3 fluorimetry; egg homogenate; added: carvedilol 30 µM, 2 min preincubation).
With `O=C(C1CCCCC1)N1CC(=O)N2CCc3ccccc3C2C1` (stereo not shown) the EC50 was no more than 660 nM (Schistosoma mansoni; motility; adult worms, all incubation times).
The EC50 of `Cc1cc(C)cc(S(=O)(=O)c2c(C(=O)NCCNS(=O)(=O)c3ccc(Br)cc3)[nH]c3ccc(Cl)cc23)c1` is reported as 160 ± 27 nM (HIV-1; viral replication; MT-4, IIIB).
`Cc1cc(N2C(=O)C(O)=C(C(=O)c3ccc(C)o3)C2c2cc(Cl)cc(Cl)c2)no1` (stereo not shown) has an EC50 of 22000 nM (West Nile virus; viral replication, plaque; BHK, Kunjin; 72 h).
For `COc1ccc(C(=O)NN=Cc2ccc(O)c3ncccc23)cc1`, the EC50 was greater than 100000 nM (Enterococcus faecium; bacterial growth; ATCC 19434; cation-supplemented medium).

Some of these lines once more:
The EC50 of `Nc1nc(=O)c2c([nH]1)NC[C@@H]1CN(c3ccc(C(=O)N[C@@H](CCC(=O)O)C(=O)O)cc3)C(=O)N21` is reported as roughly 5000 nM (Leishmania; macrophages; intracellular amastigotes).
